Measurements of several laboratories.
A part holds a random share of what one study measured.

Sample 1
Target: RNA binding protein fox-1 homolog 2, RRM domain, GST-SBP tag (RBFOX2, Homo sapiens, UniProt O43251-10, residues 100-194)
Technique: RNA Bind-n-Seq
Form: RNA
Medium: in vitro
Tested at: 365 nM
Setting: natural RNA segment, single round, ends assumed
Relative to: no-protein control
Reading: higher = stronger binding
Quantity: RBNS enrichment (R)
Construct (chain): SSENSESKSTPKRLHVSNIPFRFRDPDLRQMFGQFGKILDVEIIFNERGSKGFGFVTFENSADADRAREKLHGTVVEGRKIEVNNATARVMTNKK
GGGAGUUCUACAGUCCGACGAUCAUAUGCUUCUGUAAUAUGAAAUAGGUUAUUUGAUAACUGAGAAACUUUAAAUGUAUCAUGUGAGCAUAAGAGUCUGGAUUAUCUAACAUUGUUAGCCCUGUGUAUGUACAUGGAAUUCUCGGGUGCCAA: 0.441
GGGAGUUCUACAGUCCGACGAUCUUGGCCAUCUGAGUAGAAAUAGGAGUAGCUUUAAGAAAAAGGCAGAUUCUCUAAAGGAAUUUGGAGAUAUGACAUCACUCCUGAGCAGAGCAUAUUAGAAGAAAGCAAACUGGAAUUCUCGGGUGCCAA: 0.431
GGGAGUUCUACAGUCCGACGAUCCCUUCCGGGCGCUCCUGGACCCUGGGGCAAACCUGUGACCCUUUUCUACUGGAAUAGAAAUGAGUUUUAUCAUCUUUGAAAAAUAAUUCACUCUUGAAGUAAUAAACGUUUGGAAUUCUCGGGUGCCAA: 0.405
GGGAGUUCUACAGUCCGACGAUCGUGAAGAGCUGGAAACUUAAAAAAUUAUCAAAAGGAAUUUUGGUAUCAUCUUCAGAGAAAAAAUAAAGCAAGAAAUACUAACAUCAAAAGGACAGGUAUGAUGAUGCGAUUGGAAUUCUCGGGUGCCAA: 0.834
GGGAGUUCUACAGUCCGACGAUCUCGUUUGUCCUCAGUAAGAGCUGAAUCCUUAAAAAUUUAAGAAACUACUUUCAGCUUCCUGCUCCACCCCUGGCUUGCAAGCCCUCUUUUUGGCCCCUAUUGAGGAUGAAUGGAAUUCUCGGGUGCCAA: 0.373
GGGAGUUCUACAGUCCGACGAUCACCCAGGGUAGGCUUUCCUUUGGAUCAUCUCCAAAUGGGAGUGCCAUGUGGCAGGAAAGAAGCACCGAUUUCAAGAAUUACUUCCUAGAGAAAGUCAGGAACUAGAGACCUGGAAUUCUCGGGUGCCAA: 0.294
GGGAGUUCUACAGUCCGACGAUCGCAAGAGGUUUCUUGUGGAAAUUAUGUCCUUUCUGAGAGGAGCUGGGGAUUAGAUGCUCCUGCAUUUGUGAAAUGGUUAUAAGCAUAGAAAAAUAGGUGGUAAGCUUUCCUGGAAUUCUCGGGUGCCAA: 1.35
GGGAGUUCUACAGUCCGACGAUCCUUUGGGUCGACAUAGUAUGGAAGUAUUUGAGAGAGAGAACCUUUCCACUCCCACUGCCAGGAUUUUGUAUUGCCAUCGGGUGCCAAAUAAAUGCUCAUAUUUAUUACUGUGGAAUUCUCGGGUGCCAA: 0.658
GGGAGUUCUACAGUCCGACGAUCUUUGGGAAGGUGGGUGAGGCUGGGCAGGGCCUGGCGGAGGUGGAGUGGCCACUGGCACUUGCCUGCUGCUUGGAGUGCCCCAAGGAGGUGGCUGUUAACCACCCGCCCCGUGGAAUUCUCGGGUGCCAA: 1.09
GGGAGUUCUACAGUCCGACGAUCCAACAGCAGGGACUGAGACCUUUCUCUGUGCCACUCUCCUCACUGGGGCUCUGCCAUGUUACACUAAUUUGAAUAAGCUCUCCCUUUUUCUGUAGAGUUCCCAGCCUCAGUGGAAUUCUCGGGUGCCAA: 0.574
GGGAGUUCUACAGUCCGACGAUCUGCCUGAAGAGGCCAUAUGCUGGCAUUUUGCACAACUUUUUGGUUGUUUAGAUCCUACAGAUGACCUCUGCUACAAUAAGUACGAUGUGACUUAGUAACUGCAUAGCAGUUGGAAUUCUCGGGUGCCAA: 0.284
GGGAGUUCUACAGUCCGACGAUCUAGUGUAUACAGAUGAGGGUGUCCGCUGCUGCUUUCCUUCGGAAUCCAGUGCUUCCACAGAGAUUAGCCUGUAGCUUAUAUUUGACAUUCUUCACUGUCUGUUGUUUACCUGGAAUUCUCGGGUGCCAA: 0.34

Sample 2
Target: Histone acetyltransferase KAT6A, both winged helices, GST fusion (KAT6A, Homo sapiens, UniProt Q92794, residues 1-181)
Technique: protein binding microarray
Form: double-stranded DNA, one strand shown
Medium: in vitro
Tested at: not given
Setting: 8-mer, flanks averaged, mean of 2 arrays, mostly near background
Relative to: not given
Reading: higher = stronger binding
Quantity: E-score
Residues (chain): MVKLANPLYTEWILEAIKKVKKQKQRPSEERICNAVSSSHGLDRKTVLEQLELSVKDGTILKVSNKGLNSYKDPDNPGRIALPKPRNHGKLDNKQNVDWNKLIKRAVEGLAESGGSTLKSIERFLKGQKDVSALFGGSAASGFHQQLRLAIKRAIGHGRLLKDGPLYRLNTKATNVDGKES
ACAGGGTC: -0.0365
CTGTGTTA: -0.0901
CATTATAA: -0.0201
AGCAGTAG: -0.245
CAGGGCCC: -0.102
CCGGATGC: 0.152
AGGAGCAC: -0.104
CCTCGCCG: 0.148
GCGTCAGC: 0.278
GGGCACTA: 0.0471
AAGAGCAA: -0.164
ACATGACA: -0.123
ATTCTATC: -0.168
GCGAGAAC: 0.1
CAGCAGAG: -0.119
AACAACAT: -0.0728
CGGCAGTA: 0.225

Sample 3
Target: Prothrombin, mature alpha-thrombin (F2, Homo sapiens, UniProt P00734)
Technique: aptamer microarray, sandwich
Form: DNA with 2'F-ANA
Medium: in vitro
Tested at: 200 nM
Setting: whole 15-mer aptamer, many near background
Added: Cy3 exosite-II aptamer, 400 nM
Reading: higher = stronger binding
Quantity: mean fluorescence intensity
Sequence: GGTTGGTGTGGTTGG
2'F-ANA at 1 2 3 4 7 9 10 14 15: 64.8 a.u.
2'F-ANA at 4 5 8 13: 51.1 a.u.
2'F-ANA at 2 6 7 8 12 13 14 15: 167 a.u.
2'F-ANA at 2 8 9 12: 775 a.u.
2'F-ANA at 2 4 5 8 11 14 15: 49.4 a.u.
2'F-ANA at 2 4 5 7 9 10 12 15: 101 a.u.
2'F-ANA at 1 3 4 7: 234 a.u.
2'F-ANA at 3 4 5 6 8 11 13 14: 47.3 a.u.
2'F-ANA at 2 3 6 8 9 10 11 12: 337 a.u.
2'F-ANA at 1 7 9 10 11 13: 50.4 a.u.
2'F-ANA at 1 6 8 11 13 14: 63.1 a.u.
2'F-ANA at 1 2 4 5 6 7 9 11 12 13: 65.5 a.u.
2'F-ANA at 3 7 8 11: 1210 a.u.
2'F-ANA at 1 3 5 9 10 13 14: 45.5 a.u.
2'F-ANA at 1 2 4 6 7 8 9 10 14 15: 59 a.u.
2'F-ANA at 3 5 6 8 10 11 13 14: 51.7 a.u.
2'F-ANA at 3 4 7 8 11 15: 665 a.u.
2'F-ANA at 1 2 3 7 8 10 12 14: 57.2 a.u.
2'F-ANA at 2 6 8 9 11 13 14 15: 105 a.u.
2'F-ANA at 1 2 3 6 10 11: 56.5 a.u.
2'F-ANA at 1 3 6 7 8 11 12 13 14: 132 a.u.

Sample 4
Target: Ras GTPase-activating protein-binding protein 1, full length (G3BP1, Homo sapiens, UniProt Q13283)
Sequence of UniProt Q13283 (whole entry, looked up): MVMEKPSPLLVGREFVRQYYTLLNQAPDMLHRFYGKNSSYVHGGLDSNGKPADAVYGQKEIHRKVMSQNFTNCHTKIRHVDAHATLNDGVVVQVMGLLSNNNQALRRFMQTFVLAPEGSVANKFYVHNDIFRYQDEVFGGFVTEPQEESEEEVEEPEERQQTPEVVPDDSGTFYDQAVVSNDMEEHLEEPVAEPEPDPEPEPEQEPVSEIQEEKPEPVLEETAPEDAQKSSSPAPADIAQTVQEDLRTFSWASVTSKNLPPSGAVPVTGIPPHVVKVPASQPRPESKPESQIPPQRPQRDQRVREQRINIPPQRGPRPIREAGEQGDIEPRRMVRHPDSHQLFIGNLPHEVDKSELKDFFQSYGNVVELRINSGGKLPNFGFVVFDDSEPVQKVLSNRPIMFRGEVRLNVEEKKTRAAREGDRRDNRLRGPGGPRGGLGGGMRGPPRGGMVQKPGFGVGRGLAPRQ
Technique: RNA Bind-n-Seq
Form: RNA
Medium: in vitro
Tested at: 200 nM
Setting: whole 134-nt RNA, ends assumed
Added: 150 mM LiCl
Relative to: input library
Reading: higher = stronger binding
Quantity: log2 enrichment
All molecules: 7-deaza-guanosine replaces G
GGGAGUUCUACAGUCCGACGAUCGCAGGAAGUAAAAACAAAUGGAAAUGCUUCGGAUAGUGGCAGGGGUGGGGGUUGCUAAGGAAAGGCUGGGAUGGGAGUGGGUAAAGAGUUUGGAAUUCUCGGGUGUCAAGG: 0.103
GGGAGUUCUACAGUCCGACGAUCAGUCCUGUGCUACACAUCGUAUGUACCGAAUCGGAAAAAGGAAAAAGGGAAAAAGGGAAAGUAUUAUGUUACGCCGUUCGGAUCUGCACUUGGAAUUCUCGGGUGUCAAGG: -1.18
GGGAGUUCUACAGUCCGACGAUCGACAGACAACACGCACCCACACAGACACAGAGGGAAGGGGUUGGGAUGGGGACAGGGUGCACAGCAGGGCGGGGUAGGACCCCAGCCCCUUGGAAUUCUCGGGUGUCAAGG: 0.627
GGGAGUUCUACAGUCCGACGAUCUAACUUUAGAGGAGGAUCUGAUGGAUAUGGCAGAGGACGUGGAUUUGGGGAUGGCUAUAAUGGGUAUGGAGGAGGACCUGGAGGUGGCAAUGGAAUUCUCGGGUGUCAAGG: 0.00957
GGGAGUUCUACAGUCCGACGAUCGCAGGAAGUAAAAACAAAUGGAAAUGCUUCGGAUAGUGGCAGGGGUGGGGGUUGCUAAGGAAAGGGUGGGAUGGGAGUGGGUACAGAGUUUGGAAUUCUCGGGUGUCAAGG: -0.208
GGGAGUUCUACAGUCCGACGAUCAAGUCCUGUGCUACACAUCGUAUGUACCGAAUCGGAAAAAAAGGUUUUUUUGGAGGAAAGUAUUAUGUUACGCCGUUCGGAUCUGCACUUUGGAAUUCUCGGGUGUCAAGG: -2.29
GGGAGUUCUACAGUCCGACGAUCAGUCCUGUGCUACACAUCGUAUGUACCGAAUCGGCCCCCGGGCCCCCGGGCCCCCGGAAAGUAUUAUGUUACGCCGUUCGGAUCUGCACUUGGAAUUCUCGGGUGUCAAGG: -1.27
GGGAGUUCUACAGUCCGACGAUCCACAGACAACACGCACCCACACAGACACAGAGGGAAGGGGUUGGGAUGGGGACAGGGUGCACAGCAGGGCGGGCUAGGACCCCAGCCCCUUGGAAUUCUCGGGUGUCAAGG: 0.714
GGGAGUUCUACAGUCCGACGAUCGCAGGAAGUAAAAACAAAUGGAAAUGCUUCGGGUAGUGGCAGGGGUGGGGGUUGCUAAGGAAAGGGUGGGAUGGGAGUGGGUAAAGAGUUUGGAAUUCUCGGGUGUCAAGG: -0.254
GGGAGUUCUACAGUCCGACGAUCUCCUGUGCUACACAUCGUAUGUACCGAAUCGGGGUUUUUUGGGUUUUUUGGGUUUUUUGGAAAGUAUUAUGUUACGCCGUUCGGAUCUGCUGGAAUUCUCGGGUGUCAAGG: 0.701
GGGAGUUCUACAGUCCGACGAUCCCUGUGCUACACAUCGUAUGUACCGAAUCGGGCCCCCCGGGGCCCCCCGGCCCCCCGGGGAAAGUAUUAUGUUACGCCGUUCGGAUCUGCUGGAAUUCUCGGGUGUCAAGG: -1.99

Excerpt of the above (sample 2):
AGCAGTAG: -0.245
CAGGGCCC: -0.102
CCGGATGC: 0.152
AGGAGCAC: -0.104
CCTCGCCG: 0.148
GCGTCAGC: 0.278
GGGCACTA: 0.0471
AAGAGCAA: -0.164
ACATGACA: -0.123
ATTCTATC: -0.168
